Experimental data gathered from unrelated publications.
Lines come from different studies, so protocols differ.
Cell line: HT-29

With COc1c(C)c(OS(=O)(=O)c2ccccc2)c(C)c(OS(=O)(=O)c2ccccc2)c1C(=O)/C=C/c1ccccc1 the IC50 was over 50 µM (cell growth or viability, SRB; 72 h).
With CC(C)c1ccc(N(C)c2ccc3c(c2)OCC[C@H]3CNc2cnccc2C(=O)O)cc1 the IC50 was 0.0235 µM (cell growth or viability, MTS; 7 days).
The IC50 of CCCCCCCCCCCC(=O)Oc1c(C)c(OC)c2c(/C=C/c3ccccc3)c(CCCCCCCCCC)c(=O)oc2c1C is reported as over 50 µM (cell growth or viability, SRB; 72 h).
CNS(=O)(=O)Nc1nccc(Cc2c(C)c3ccc(Oc4ncccc4F)cc3oc2=O)c1F gave an IC50 of 0.00682 µM (cell viability; 7 days).
CCCCCCCCCC(=O)Oc1c(C)c(OC)c2c(c1C)OC(=O)C(CCCCCCCC)C2(O)C=Cc1ccccc1 (stereo not shown) has an IC50 of over 50 µM (cell growth or viability, SRB; 72 h).
CO[C@@H](C[C@H]1C(C)=CC[C@@H]2[C@]3(C)C[C@H](O[C@@H]4O[C@@H](C)[C@H](O)[C@@H](O)[C@H]4O)[C@@H](O)C(C)(C)[C@H]3CC[C@]21C)[C@H](N)C(=O)O gave an IC50 of over 10 µM (cell growth or viability, CCK-8; 72 h).
CCc1occc(=O)c1[O-].[Cl-].[W+4].c1cc[cH-]c1.c1cc[cH-]c1 has an IC50 of 350 µM (cell growth or viability, MTT).
With O=C1Nc2ccccc2C1(c1c[nH]c2ccccc12)c1c[nH]c2ccccc12 the IC50 was 12.4 µM (cell growth or viability, ATP luminescence; 24 h).
The IC50 of CO[C@@H](C[C@H]1C(C)=CC[C@@H]2[C@]3(C)C[C@H](O[C@@H]4O[C@@H](C)[C@H](OC(=O)c5cccc(O)c5)[C@@H](O[C@@H]5O[C@H](CO)[C@@H](O)[C@H](O)[C@H]5NC(C)=O)[C@H]4O)[C@@H](O)C(C)(C)[C@H]3CC[C@]21C)[C@H](N)C(=O)O is reported as 6.19 µM (cell growth or viability, CCK-8; 72 h).
For COc1cc(-n2cc3cc(F)cc(C(N)=O)c3n2)cc(Cl)c1C1CC(O)(CCO)CC2CCCC21 (stereo not shown), the IC50 was 0.24 µM (cell growth or viability, MTT; 72 h).
The IC50 of CCCCCCCCCCCC(=O)Oc1c(C)c(OC)c2c(c1C)OC(=O)[C@@H](CCCCCCCCCC)[C@]2(O)/C=C/c1ccccc1 (relative stereo) is reported as over 50 µM (cell growth or viability, SRB; 72 h).
Cc1ccc([N+](=O)[O-])cc1S(=O)(=O)N(C)/N=C/c1cnc2ccc(Br)cn12 has an IC50 of 0.087 µM (cell viability, MTS).
The IC50 of O=C([O-])CC(=O)[O-].[W+4].c1cc[cH-]c1.c1cc[cH-]c1 is reported as 790 µM (cell growth or viability, MTT).

Some of these lines once more:
With O=C1Nc2ccccc2C1(c1c[nH]c2ccccc12)c1c[nH]c2ccccc12 the IC50 was 12.4 µM (cell growth or viability, ATP luminescence; 24 h).
